Published values pooled from the literature.
A part holds a random share of what one study measured. Changes are numbered by the printed parent chain.

Set 1 — method: protein binding microarray; molecule type: double-stranded DNA, one strand shown; sample: in vitro; tested at: not given; baseline: not given; direction: higher = stronger binding
Target: Histone acetyltransferase KAT6A, winged helix 2, GST fusion (KAT6A, Homo sapiens, UniProt Q92794, residues 85-181)
Notes: 8-mer, flanks averaged, mean of 2 arrays, mostly near background
Construct (chain): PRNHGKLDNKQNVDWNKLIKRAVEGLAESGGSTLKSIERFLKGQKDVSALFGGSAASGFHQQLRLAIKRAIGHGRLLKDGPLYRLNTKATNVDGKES
`ATGCATAG` has an E-score of -0.0519.
With `CTCTGTGC` the E-score was 0.0438.
The E-score of `GGCCAACA` is reported as 0.00786.
With `TAGTCTGA` the E-score was -0.0315.
With `AAAGAGCA` the E-score was 0.0724.
For `CGCCCTCC`, the E-score was 0.0674.
`GAAGTTCA` gave an E-score of -0.0436.
For `CCTTCCGA`, the E-score was 0.105.
With `AGCTGTGG` the E-score was -0.0852.
`AGACGAAG` gave an E-score of 0.0896.
The E-score of `ACTGAGCT` is reported as 0.0567.
With `ATATTTGC` the E-score was 0.0136.
`GGTAAGCA` gave an E-score of 0.0794.
With `ACTTTCAC` the E-score was -0.0666.
With `ACATTTTG` the E-score was 0.025.
`AATCACCG` gave an E-score of 0.00844.
`CCTGGTGC` has an E-score of 0.0891.
`CCGGATCG` gave an E-score of 0.116.
`GAAGCGGA` gave an E-score of 0.0216.
With `CCCGTTAA` the E-score was -0.126.
`AACGTGAA` gave an E-score of -0.242.
`TAGCACGA` gave an E-score of -0.0111.
The E-score of `ACACAAGA` is reported as -0.0296.
With `ATGCGGGC` the E-score was 0.0596.

Set 2 — method: DHFR PCA, deep sequencing; sample: yeast; with: (+)-ABA 710 µM; baseline: wild-type fitted maximum; direction: higher = stronger binding
Target: ABI1, truncated, D143A, DHFR fusion (Arabidopsis thaliana)
Notes: methotrexate growth selection, single substitutions
Starting sequence: PYL1, truncated, DHFR fusion (Arabidopsis thaliana); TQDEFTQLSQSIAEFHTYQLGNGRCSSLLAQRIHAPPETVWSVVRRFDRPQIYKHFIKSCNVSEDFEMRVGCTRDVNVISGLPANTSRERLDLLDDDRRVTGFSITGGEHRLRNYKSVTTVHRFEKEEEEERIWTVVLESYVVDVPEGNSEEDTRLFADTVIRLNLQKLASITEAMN; partner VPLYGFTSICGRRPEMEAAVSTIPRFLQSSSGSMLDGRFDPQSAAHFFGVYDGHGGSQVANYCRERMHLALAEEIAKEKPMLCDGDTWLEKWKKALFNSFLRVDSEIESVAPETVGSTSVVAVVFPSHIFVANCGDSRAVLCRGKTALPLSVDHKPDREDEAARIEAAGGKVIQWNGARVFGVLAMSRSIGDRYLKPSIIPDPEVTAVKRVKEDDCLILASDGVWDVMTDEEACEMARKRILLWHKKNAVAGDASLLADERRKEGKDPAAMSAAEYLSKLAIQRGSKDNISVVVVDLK
`S80M`: “relative binding score” 36.3%.
`M176C` — result for “relative binding score”: 95.8%.
Under “relative binding score”, `H122C` is recorded as 80.1%.
`M68T` — result for “relative binding score”: 99%.
`Y18I`: “relative binding score” 92.4%.
`D96K`: “relative binding score” 55.8%.
`Q10T` — result for “relative binding score”: 103%.
Under “relative binding score”, `D3G` is recorded as 100%.
`V137N`: “relative binding score” 3.26%.
`F47R` — result for “relative binding score”: -2.85%.
`K116G` — result for “relative binding score”: 67.9%.
Under “relative binding score”, `Q31T` is recorded as 73.4%.
Under “relative binding score”, `R49F` is recorded as 88.5%.
Under “relative binding score”, `S150R` is recorded as 85.5%.
`S42R`: “relative binding score” 106%.
Under “relative binding score”, `Y141A` is recorded as 1.02%.
`L166K`: “relative binding score” -2.43%.
`R132Y`: “relative binding score” 103%.
`H110L` — result for “relative binding score”: 26.5%.
`V118P` — result for “relative binding score”: -28.7%.
Under “relative binding score”, `T173L` is recorded as 92%.

Set 3 — target: CCNF, cyclin fold, Cln2 fusion (human); method: yeast growth competition, sequencing; sample: yeast; notes: strong parent motif; baseline: not given; direction: higher = stronger binding
Starting sequence: RB1 docking peptide (human); PKPLKKLRFDIEG
`K5Q`: “normalised enrichment score” 1.63.
Under “normalised enrichment score”, `I11H` is recorded as 2.18.
Under “normalised enrichment score”, `K5Y` is recorded as 1.01.
`G13H`: “normalised enrichment score” 0.743.
Under “normalised enrichment score”, `K5A` is recorded as 0.493.
`P1L` — result for “normalised enrichment score”: 2.07.
Under “normalised enrichment score”, `F9N` is recorded as 1.14.
`R8T` — result for “normalised enrichment score”: 1.4.
Under “normalised enrichment score”, `R8V` is recorded as 2.72.
`K5I`: “normalised enrichment score” 0.77.
`L7V`: “normalised enrichment score” 0.871.
For `R8K`, “normalised enrichment score” read 0.705.
`R8Q` — result for “normalised enrichment score”: 0.677.
For `I11A`, “normalised enrichment score” read 1.57.
Under “normalised enrichment score”, `P1T` is recorded as 1.04.
`G13V` — result for “normalised enrichment score”: 1.86.
`G13R` — result for “normalised enrichment score”: 2.07.
Under “normalised enrichment score”, `K2R` is recorded as 1.04.
For `P3C`, “normalised enrichment score” read 5.15.
For `K6A`, “normalised enrichment score” read 2.37.
`P3N`: “normalised enrichment score” 0.355.
`K2D`: “normalised enrichment score” 0.432.
`D10A` — result for “normalised enrichment score”: 1.64.
For `K5H`, “normalised enrichment score” read 1.02.
`K6L`: “normalised enrichment score” 0.933.

Set 4 — target: ATF7, bZIP domain (human); method: DHFR protein complementation; sample: yeast; baseline: wild-type JUN-FOS pair; direction: higher = stronger binding
Notes: single substitutions, most at no-binding floor
Starting sequence: JUN, bZIP domain (human); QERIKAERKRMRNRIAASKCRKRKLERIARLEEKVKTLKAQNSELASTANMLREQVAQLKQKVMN; partner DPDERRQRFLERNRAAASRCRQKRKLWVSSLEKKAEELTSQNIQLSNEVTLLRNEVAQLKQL
`K39Y` has a binding fitness of -1.24 natural log.
The binding fitness of `Q41F` is reported as -1.45 natural log.
`A29E` has a binding fitness of -0.961 natural log.
`L31G` gave a binding fitness of -1.47 natural log.
The binding fitness of `E54G` is reported as -1.16 natural log.
`Q55P` gave a binding fitness of -1.44 natural log.
`Q55K` gave a binding fitness of -1.19 natural log.
`K34E` has a binding fitness of -1.28 natural log.
The binding fitness of `Q58P` is reported as -1.31 natural log.
`E32S` gave a binding fitness of -1.2 natural log.
With `S47D` the binding fitness was -0.864 natural log.
With `N42E` the binding fitness was -1.42 natural log.
The binding fitness of `K34L` is reported as -0.899 natural log.
`R53Y` has a binding fitness of -1.49 natural log.
`L31I` gave a binding fitness of -1.28 natural log.
With `L31A` the binding fitness was -1.18 natural log.
With `E44Q` the binding fitness was -0.939 natural log.
The binding fitness of `Q41I` is reported as -1 natural log.

Set 5 — method: RNA Bind-n-Seq; molecule type: RNA; sample: in vitro; tested at: 200 nM; notes: whole 134-nt RNA, ends assumed; with: 150 mM LiCl; baseline: input library; direction: higher = stronger binding; each molecule: 7-deaza-guanosine replaces G
Target: Fragile X messenger ribonucleoprotein 1, C-terminal low-complexity region (Fmr1, Mus musculus, UniProt P35922)
Shared flanks, not repeated: GGGAGUUCUACAGUCCGACGAUC … UGGAAUUCUCGGGUGUCAAGG
The log2 enrichment of `UGGGUGGUGGAUUUUGUUUAUUUUUUUAGCUCAUUUCCAGGGGUGGGAAUUUUUUUUUAAUAUGUGUCAUGAAUAAAGUUGUUUUUGAAA` is reported as 0.97.
For `AGUCCUGUGCUACACAUCGUAUGUACCGAAUCGGGGAGGGGAGGGGUUUUUUUGGGGAAAGUAUUAUGUUACGCCGUUCGGAUCUGCACU`, the log2 enrichment was 0.107.
For `CCUCAAGUCCUGUGCUACACAUCGUAUGUACCGAAUCGGUUGGUUGGUUGGGAAAGUAUUAUGUUACGCCGUUCGGAUCUGCACUUCCAG`, the log2 enrichment was 0.342.
For `AGUCCUGUGCUACACAUCGUAUGUACCGAAUCGGAAAAAGGAAAAAAAGGUUUUUGGAAAGUAUUAUGUUACGCCGUUCGGAUCUGCACU`, the log2 enrichment was -2.88.
`UCAAGUCCUGUGCUACACAUCGUAUGUACCGAAUCGGGUUUGGUUUGGGGUUUGGAAAGUAUUAUGUUACGCCGUUCGGAUCUGCACUUC` gave a log2 enrichment of -1.89.
`AGUCCUGUGCUACACAUCGUAUGUACCGAAUCGGAAAAAAAGGUUUUUUUGGAAAGGAAAGUAUUAUGUUACGCCGUUCGGAUCUGCACU` gave a log2 enrichment of -3.67.
With `UCAAGUCCUGUGCUACACAUCGUAUGUACCGAAUCGGAAGGGAAGGGGAAGGGGAAAGUAUUAUGUUACGCCGUUCGGAUCUGCACUUCC` the log2 enrichment was -0.508.
`GCAGGAAGUAAAAACAAAUGGAAAUGCUUCGGAUAGUGGCAGGGGUGGCGGUUGCUAAGGAAAGGGUGGGAUGGGAGUGGGUAAAGAGUU` gave a log2 enrichment of 1.27.
`CACAGACAACACGCACCCACACAGACACAGAGGGAAGGGGUUGGGAUGGGGACAGGGUGCACAGCAGGAAAGGGUAGGACCCCAGCCCCU` has a log2 enrichment of 0.403.
The log2 enrichment of `UGGGAGGUGGAUUUUGUUUAUUUUUUUAGCUAAUUUCCAGGGGUGGGAAUUUUUUUUUAAUAUGUGUCAUGAAUAAAGUUGUUUUUGAAA` is reported as 0.0391.
The log2 enrichment of `CAUAGACAACACGCACCCACACAGACACAGAGGGAAGGGGUUGGGAUGGGGACAGGGUGCACAGCAGGGCGGGGUAGGACCCCAGCCCCU` is reported as 0.711.

Set 6 — method: universal PBM; molecule type: double-stranded DNA, one strand shown; sample: in vitro; tested at: 600 nM; direction: higher = stronger binding
Target: Sal-like protein 4, full length isoform A (SALL4, Homo sapiens, UniProt Q9UJQ4, residues 1-1053)
UniProt Q9UJQ4, sequence (whole entry, looked up): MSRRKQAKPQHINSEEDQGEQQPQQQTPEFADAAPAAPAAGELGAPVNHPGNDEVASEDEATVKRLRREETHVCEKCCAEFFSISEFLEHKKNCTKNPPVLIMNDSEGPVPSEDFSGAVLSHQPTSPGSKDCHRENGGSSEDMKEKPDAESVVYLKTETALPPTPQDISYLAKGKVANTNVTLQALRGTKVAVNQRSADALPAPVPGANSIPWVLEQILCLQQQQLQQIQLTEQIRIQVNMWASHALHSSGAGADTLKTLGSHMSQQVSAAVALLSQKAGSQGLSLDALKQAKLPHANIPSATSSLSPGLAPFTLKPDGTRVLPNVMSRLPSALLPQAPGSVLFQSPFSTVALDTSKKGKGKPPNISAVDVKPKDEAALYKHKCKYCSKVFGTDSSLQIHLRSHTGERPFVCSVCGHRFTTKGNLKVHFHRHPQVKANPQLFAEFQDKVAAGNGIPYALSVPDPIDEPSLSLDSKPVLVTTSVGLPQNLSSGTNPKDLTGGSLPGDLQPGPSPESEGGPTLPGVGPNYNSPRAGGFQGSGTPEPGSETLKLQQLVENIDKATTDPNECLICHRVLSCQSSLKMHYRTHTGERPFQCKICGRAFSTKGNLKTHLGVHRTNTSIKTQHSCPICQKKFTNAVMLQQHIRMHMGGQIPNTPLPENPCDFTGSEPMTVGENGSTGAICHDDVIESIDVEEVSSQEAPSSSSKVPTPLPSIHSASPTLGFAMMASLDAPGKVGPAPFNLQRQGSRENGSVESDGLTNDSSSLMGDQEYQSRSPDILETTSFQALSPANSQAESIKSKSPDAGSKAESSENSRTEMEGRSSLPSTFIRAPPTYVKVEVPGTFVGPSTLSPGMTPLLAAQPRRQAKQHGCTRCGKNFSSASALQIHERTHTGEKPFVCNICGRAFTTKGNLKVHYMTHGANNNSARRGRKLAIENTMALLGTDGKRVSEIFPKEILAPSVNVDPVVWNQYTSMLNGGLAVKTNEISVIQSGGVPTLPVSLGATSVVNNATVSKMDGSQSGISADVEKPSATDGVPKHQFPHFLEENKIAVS
Notes: 8-mer, flanks averaged, mean of replicates
For `ACGAACAG`, the E-score was -0.078.
`AGAGTTCG` has an E-score of -0.0722.
The E-score of `ATCTACGG` is reported as 0.00972.
With `CGGTGGAA` the E-score was -0.21.
`ACCGAAAG` gave an E-score of 0.0992.
`GCCGCAAA` gave an E-score of -0.0601.
With `AGCGGTAT` the E-score was 0.174.
`CTTCCACA` gave an E-score of -0.0389.
With `AATGCAAA` the E-score was 0.305.
`CCAGAAGG` gave an E-score of -0.146.
`AACACATG` has an E-score of 0.121.
For `AATCATGA`, the E-score was 0.289.
The E-score of `CGATGTCC` is reported as -0.231.
`CCAAATGC` gave an E-score of -0.136.
`CAAAAGGG` gave an E-score of -0.0717.
For `ATGGAAAT`, the E-score was 0.263.
The E-score of `CCCTCCCG` is reported as -0.212.
`CTACGCGC` has an E-score of -0.268.
For `GTGCTGGA`, the E-score was -0.132.
`ACAATTTA` gave an E-score of 0.287.
For `CTCTGGGC`, the E-score was -0.166.
`AAGAGACT` gave an E-score of 0.0324.
